Measured values pooled from the literature.
Numbered parts are unrelated; each lists some results of a single study. Positions count from the first letter of the parent shown.

Set 1
Target: JUNB, bZIP domain (human)
Technique: DHFR protein complementation
Matrix: yeast
Setting: single substitutions, most at no-binding floor
Relative to: wild-type JUN-FOS pair
Reading: higher = stronger binding
Starting sequence: JUN, bZIP domain (human); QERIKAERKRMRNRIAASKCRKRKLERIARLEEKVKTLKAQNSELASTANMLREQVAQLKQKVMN; partner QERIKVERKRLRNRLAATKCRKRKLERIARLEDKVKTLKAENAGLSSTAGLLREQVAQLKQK
Change | binding fitness
T37G | -1.35 natural log
L52A | -1.55 natural log
V35Q | -1.51 natural log
Q41S | -1.49 natural log
V56W | -1.43 natural log
E33H | -1.24 natural log
T37W | -1.07 natural log
N42D | -1.51 natural log
A49F | -1.39 natural log
K34T | -0.886 natural log
E33K | -1.17 natural log
Q55S | -1.44 natural log
L38E | -1.56 natural log
S43D | -1.1 natural log
V56G | -1.48 natural log
I28F | -1.31 natural log
A29Q | -1.19 natural log
A40G | -1.42 natural log
A57P | -1.55 natural log
M51T | -1.19 natural log
A49E | -1.19 natural log
A40R | -1.06 natural log
V56A | -1.39 natural log
T37Y | -1.11 natural log

Set 2
Target: ABI1, truncated, D143A, DHFR fusion (Arabidopsis thaliana)
Technique: DHFR PCA, deep sequencing
Matrix: yeast
Setting: methotrexate growth selection, single substitutions
Added: (+)-ABA 1.4 µM
Relative to: wild-type fitted maximum
Reading: higher = stronger binding
Starting sequence: PYL1, truncated, DHFR fusion (Arabidopsis thaliana); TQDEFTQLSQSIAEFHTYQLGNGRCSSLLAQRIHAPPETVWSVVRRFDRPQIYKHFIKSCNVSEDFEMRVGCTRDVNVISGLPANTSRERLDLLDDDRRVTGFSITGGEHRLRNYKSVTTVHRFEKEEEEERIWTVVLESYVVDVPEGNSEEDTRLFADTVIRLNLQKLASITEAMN
Change | relative binding score [%]
E139R | 7.5
H122F | 3.32
L8T | 15.4
L91C | 8
C25Y | -7.35
S11A | 76.2
H122K | 7.3
K116M | 3.92
E130N | 56.6
C60H | -5.85
F47I | 1.85
Q2G | 38.1
H122R | 0.326
N165R | 7.54
W134K | 12.2
R99G | 8.13
L93K | 23.9
I133D | 80.9
N177P | 42.1
S150D | 42.5
L91S | 11.9

Set 3
Target: Prothrombin, mature alpha-thrombin (F2, Homo sapiens, UniProt P00734)
Technique: aptamer microarray, sandwich
Form: DNA with 2'F-ANA
Matrix: in vitro
Concentration: 200 nM
Setting: whole 15-mer aptamer, many near background
Added: Cy3 exosite-II aptamer, 400 nM
Reading: higher = stronger binding
Oligonucleotide: GGTTGGTGTGGTTGG
Modification | mean fluorescence intensity
2'F-ANA at 1 7 11 12 14 15 | 92.9 a.u.
2'F-ANA at 1 3 4 6 11 15 | 144 a.u.
2'F-ANA at 4 7 10 11 13 14 | 60.8 a.u.
2'F-ANA at 1 2 3 6 8 10 11 12 15 | 80.2 a.u.
2'F-ANA at 1 2 5 7 8 9 12 15 | 115 a.u.
2'F-ANA at 3 4 6 7 8 10 11 13 14 15 | 146 a.u.
2'F-ANA at 1 4 5 7 8 9 11 14 | 50.7 a.u.
2'F-ANA at 1 2 5 7 8 9 10 11 13 14 | 51.5 a.u.
2'F-ANA at 7 8 9 10 12 13 14 15 | 121 a.u.
2'F-ANA at 1 3 4 7 8 10 11 12 13 14 | 51.9 a.u.
2'F-ANA at 1 5 7 12 | 114 a.u.
2'F-ANA at 2 4 5 7 9 12 14 | 49.1 a.u.
2'F-ANA at 4 7 14 15 | 116 a.u.
2'F-ANA at 1 3 5 6 8 9 10 13 14 15 | 46.8 a.u.
2'F-ANA at 1 4 6 7 13 14 | 47.8 a.u.
2'F-ANA at 4 5 6 8 9 10 11 13 15 | 46.6 a.u.
2'F-ANA at 2 3 6 9 13 | 568 a.u.

Set 4
Target: CCND1, cyclin fold, Cln2 fusion (human)
Technique: yeast growth competition, sequencing
Matrix: yeast
Setting: weak parent motif
Relative to: not given
Reading: higher = stronger binding
Starting sequence: PKN2 docking peptide (human); DSTVTKLDFDLEP
Change | normalised enrichment score
DSTVTKLDFDLEA [P13A] | 0.683
DSTVAKLDFDLEP [T5A] | 0.637
DSTVTALDFDLEP [K6A] | 0.755
DSTVTKLDFDLAP [E12A] | 0.923
DSTVTKLDADLEP [F9A] | 0.145
DSTVTKLDFALEP [D10A] | 0.491
DSTVTKLAFDLEP [D8A] | 0.346

Set 5
Target: Probable WRKY transcription factor 33, C-terminal DNA-binding domain (WRKY33, Arabidopsis thaliana, UniProt Q8S8P5, residues 346-449)
Technique: DNA-protein interaction ELISA
Form: double-stranded DNA, one strand shown
Matrix: in vitro, bacterial lysate
Concentration: not given
Setting: whole dsDNA probe, crude lysate protein
Relative to: highest signal in screen
Reading: higher = stronger binding
Construct (chain): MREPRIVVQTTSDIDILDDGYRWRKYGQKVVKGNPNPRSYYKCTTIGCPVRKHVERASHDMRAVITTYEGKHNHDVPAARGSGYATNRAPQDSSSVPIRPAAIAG
Oligonucleotide | relative absorbance
AAAAAAGGTCCAGTCCACGTCATCAGAAAA | 99.6 % of maximum
AAAAAAACCGATTACCATTTTTACTGAAAA | 48.5 % of maximum
AAAAAATTTCTATTTCATCTTTGCCCAAAA | 36.8 % of maximum
AAAAAAGAGTGGTTTATTAATGTATAAAAA | 44.8 % of maximum
AAAAAAATGGTGCCGCTGAGCAAATTAAAA | 36.1 % of maximum
AAAAAACAGTTCGATGTCACCCCCGCAAAA | 38.1 % of maximum
AAAAAACGGTAAGTCGACAAAA | 65.5 % of maximum
AAAAAATCAAAACAACGATGCCGTTAAAAA | 53.2 % of maximum
AAAAAATGCAACGCTCCTTTCCCGCTAAAA | 31.4 % of maximum
AAAAAAAGTTTGACCTTGGCGTTCGTAAAA | 99.3 % of maximum
AAAAAACCCTAACGAATGCTTTTCGGAAAA | 31.4 % of maximum
AAAAAATGGAAGGAGAGGGATGAAATAAAA | 44.5 % of maximum
AAAAAATATCTGATCCAATTTAGGTCAAAA | 34.2 % of maximum
AAAAAAGCCATCATGGTTAGTGTACAAAAA | 37 % of maximum
AAAAAACCTACGATGGTTCTGATCTTAAAA | 37.2 % of maximum
AAAAAAACAGCTCGGTGCCACTGTGGAAAA | 45.1 % of maximum
AAAAAAGCTCCCGTCTCTTAGTTCTAAAAA | 30.9 % of maximum
AAAAAATCGCGTCCGTGCTCAATCCAAAAA | 31.7 % of maximum

Set 6
Target: Interferon regulatory factor 7, full length, phosphomimetic (IRF7, Homo sapiens, UniProt Q92985, residues 1-503, S471D/S472D/S475D/S476D/S477D/S483D/S484D/S487D)
UniProt Q92985, sequence (whole entry, unmodified, looked up): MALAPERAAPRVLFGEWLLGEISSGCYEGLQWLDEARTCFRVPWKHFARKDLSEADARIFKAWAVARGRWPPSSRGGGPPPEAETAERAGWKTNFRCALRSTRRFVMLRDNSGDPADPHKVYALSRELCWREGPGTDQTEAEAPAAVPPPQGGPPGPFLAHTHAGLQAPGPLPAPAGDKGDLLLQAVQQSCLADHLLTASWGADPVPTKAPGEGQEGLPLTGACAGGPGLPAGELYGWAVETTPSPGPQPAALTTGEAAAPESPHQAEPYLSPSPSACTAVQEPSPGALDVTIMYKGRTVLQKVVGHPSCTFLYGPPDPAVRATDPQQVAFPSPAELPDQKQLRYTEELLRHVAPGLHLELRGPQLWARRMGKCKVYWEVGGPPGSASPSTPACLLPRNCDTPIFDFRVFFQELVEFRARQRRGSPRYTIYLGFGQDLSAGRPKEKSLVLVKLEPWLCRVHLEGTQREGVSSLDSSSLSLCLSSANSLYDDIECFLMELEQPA
Technique: protein-binding microarray
Form: double-stranded DNA, one strand shown
Matrix: in vitro
Concentration: 2200 nM top
Setting: 60-bp whole probe
Added: salmon DNA 0.4 mg/ml
Relative to: random background probes
Reading: higher = stronger binding
All sequences stand within: GCCTAGCAC … GTCTTGATTCGCTTGACGCTGCTG
Oligonucleotide | fitted relative affinity [z-score]
GACGGTCTCGCTCTCGGGACGTGCTAG | 0.0288
TTAGGTTCCCTGTTCCTTTAGTGCTAG | 1.86
GACGATTTCGGGAGTGGAGACGTGCTA | 0.612
GACGATTCCCGTTTCGAGACGTGCTAG | 3.09
CCAAGGTTCAAGTTTACCCATGTGCTA | 0.0396
GCCGGTATCCTTTTCCTGACGTGCTAG | 1.49
TCATACTTCTCTTTTTGACTGTGCTAG | 1.67
GACGGACTGGACTATCGTGACGTGCTA | -0.267
TTAGATTCCAGTTTTGATTAGTGCTAG | 1.64
CAGAGCCTCAGGCCTCACACAGTGCTA | -0.86
CTAGGACTGGGGTATCGGTTAGTGCTA | -0.788
TTAGGTCTGGGTTTCGGTTAGTGCTAG | 4.14
TTAGGACTGCGGTTTCGGTTAGTGCTA | 4.5
GACGATATCAGACCGGAGACGTGCTAG | 0.199
TTAGGTTTCGGGATTGGGTTAGTGCTA | 4.87
GACGATATCAGACTGGAGAGGTGCTAG | -0.146
TTAGGTTTACTTATCCTTTAGTGCTAG | 1.07
GACGGCATCCTACTGCTGACGTGCTAG | 0.0584
GACGGTATCCTTCTGCTGACGTGCTAG | 0.981
GACGATTCCAGTTTCGACACGTGCTAG | 3.62
TCATGTCTGTTTTTGCTACTGTGCTAG | 1.71
GACGGACGGGACTATCGGGACGTGCTA | -1.03

Set 7
Target: CRIPT, C-terminal peptide
Technique: DHFR complementation, deep sequencing
Matrix: yeast
Setting: single substitutions, model-inferred values
Relative to: wild type
Reading: higher = weaker binding
Starting sequence: ERBIN, PDZ domain 1 (human); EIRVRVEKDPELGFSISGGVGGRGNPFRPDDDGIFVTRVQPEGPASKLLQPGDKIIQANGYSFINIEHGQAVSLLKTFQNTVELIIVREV; partner TKNYKQTSV
Change | binding free energy change
D31Q | 0.716 kcal/mol
K47Y | 0.208 kcal/mol
V87K | -0.00412 kcal/mol
F35S | 0.625 kcal/mol
P26A | 0.79 kcal/mol
E89G | -0.0186 kcal/mol
G60N | 0.0969 kcal/mol
G33I | 0.501 kcal/mol
G52Q | 0.674 kcal/mol
V90C | -0.109 kcal/mol
I64H | 0.017 kcal/mol
D31K | 1.14 kcal/mol
S73A | -0.0422 kcal/mol
D32L | 0.358 kcal/mol
S73Q | 0.0323 kcal/mol

Other studies, line by line
Substance | target | assay | test system | setting | how to read | quantity | result
PhoQ, residues 284 288 289 292 302 303 TTCLQL | PhoP, residues 12 14 15 18 19 LWHVM (Escherichia coli, UniProt P23836) | Sort-seq, refers to: YFP reporter | E. coli | PhoQ-PhoP variant library, added: 10 µM Mg2+ | relative to: high Mg2+ state, higher = stronger signaling | fold induction | 6.63
